# Experimental data collected from several papers.
# Every numbered part comes from another study and shows a few of its results, in no order.

# Block 1
# Target: RNA binding protein fox-1 homolog 2, RRM domain, GST-SBP tag (RBFOX2, Homo sapiens, UniProt O43251-10, residues 100-194)
# Technique: RNA Bind-n-Seq
# Form: RNA
# Medium: in vitro
# Tested at: 365 nM
# Notes: natural RNA segment, single round, ends assumed
# Relative to: no-protein control
# Direction: higher = stronger binding
Oligonucleotide,RBNS enrichment (R)
GGGAGUUCUACAGUCCGACGAUCGUGAGGCACGUGCUUUGAAGCAGAUGCCUUCAGCCCUCCCUGCUGGGAGGUGGUCUCUCAAGCUCUGGGUGCUUUUAGUACUUUUUUUUUUUUUUAACUGUAGGGAAGCAUGGAAUUCUCGGGUGCCAA,1.84
GGGAGUUCUACAGUCCGACGAUCGCUCUGUGAGAAGGCGUGCCAGCCAUUAGGAAGCCCCACCGCCAAAGGAGGUGCACCCAGGAGGGUCCUCAGAAUCAUGGACUUCUACCCCAUUGCUGGUAGACAAUUUUUGGAAUUCUCGGGUGCCAA,0.391
GGGAGUUCUACAGUCCGACGAUCAGGGUAAGAAGAACAUGUAGAAUCCAGAUUCCCUGAGUGUGAGGGACCCAUGGUGCAUUUGUAAUAAUAAAACCAAAGAAACAAACACCUGUGUGCUAGCUGCGUGCUGGUGGAAUUCUCGGGUGCCAA,0.727

# Block 2
# Target: Prothrombin, mature alpha-thrombin (F2, Homo sapiens, UniProt P00734)
# Technique: aptamer microarray, sandwich
# Form: DNA with 2'F-ANA
# Medium: in vitro
# Tested at: 200 nM
# Notes: whole 15-mer aptamer, many near background
# With: Cy3 exosite-II aptamer, 400 nM
# Direction: higher = stronger binding
Oligonucleotide,mean fluorescence intensity [a.u.]
GGTTGGTGTGGTTGG (2'F-ANA at 1 2 5 6 7 9 11 12 14),47.9
GGTTGGTGTGGTTGG (2'F-ANA at 2 3 5 9 11 15),77.3
GGTTGGTGTGGTTGG (2'F-ANA at 1 3 5 9 14 15),46
GGTTGGTGTGGTTGG (2'F-ANA at 1 3 5 7 8 10 11 12 13 14),48.9

# Block 3
# Target: Histone acetyltransferase KAT6A, both winged helices, GST fusion (KAT6A, Homo sapiens, UniProt Q92794, residues 1-181)
# Technique: protein binding microarray
# Form: double-stranded DNA, one strand shown
# Medium: in vitro
# Tested at: not given
# Notes: 8-mer, flanks averaged, mean of 2 arrays, mostly near background
# Relative to: not given
# Direction: higher = stronger binding
# Target sequence (chain): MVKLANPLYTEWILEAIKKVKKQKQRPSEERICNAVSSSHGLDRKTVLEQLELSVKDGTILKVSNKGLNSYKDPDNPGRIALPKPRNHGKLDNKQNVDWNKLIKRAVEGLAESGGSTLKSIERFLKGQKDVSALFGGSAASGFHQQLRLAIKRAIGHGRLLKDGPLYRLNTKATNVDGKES
Oligonucleotide,E-score
ATTTGAAC,0.0226
ATGAGACA,-0.162
ACAAGTAT,-0.0608
TGAATACA,-0.0781
ATGGTACG,-0.00367

# Mixed results
Substance,target,test,test system,conditions,how to read,quantity,value
"PhoQ, residues 284 288 289 292 302 303 SACGEM","PhoP, residues 12 14 15 18 19 SMASL (Escherichia coli, UniProt P23836)","Sort-seq, refers to: YFP reporter",E. coli,"PhoQ-PhoP variant library, with: 10 µM Mg2+","relative to: high Mg2+ state, higher = stronger signaling",fold induction,3.46

# A few entries again (block 3):
Oligonucleotide,E-score
ATGAGACA,-0.162
ACAAGTAT,-0.0608
